Published values collected from several papers.
Each numbered part is a random draw from the data of one study; scales do not carry over between parts. Changes are numbered by the printed parent chain.

Set 1
Target: ABI1, truncated, D143A, DHFR fusion (Arabidopsis thaliana)
Technique: DHFR PCA, deep sequencing
Medium: yeast
Notes: methotrexate growth selection, single substitutions
With: (+)-ABA 0.11 µM
Baseline: wild-type fitted maximum
Direction: higher = stronger binding
Starting sequence: PYL1, truncated, DHFR fusion (Arabidopsis thaliana); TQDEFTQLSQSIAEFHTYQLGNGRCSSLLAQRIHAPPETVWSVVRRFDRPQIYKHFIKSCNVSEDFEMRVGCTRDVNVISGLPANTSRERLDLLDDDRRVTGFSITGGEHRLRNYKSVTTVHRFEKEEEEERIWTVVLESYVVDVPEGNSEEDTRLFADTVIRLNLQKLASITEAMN; partner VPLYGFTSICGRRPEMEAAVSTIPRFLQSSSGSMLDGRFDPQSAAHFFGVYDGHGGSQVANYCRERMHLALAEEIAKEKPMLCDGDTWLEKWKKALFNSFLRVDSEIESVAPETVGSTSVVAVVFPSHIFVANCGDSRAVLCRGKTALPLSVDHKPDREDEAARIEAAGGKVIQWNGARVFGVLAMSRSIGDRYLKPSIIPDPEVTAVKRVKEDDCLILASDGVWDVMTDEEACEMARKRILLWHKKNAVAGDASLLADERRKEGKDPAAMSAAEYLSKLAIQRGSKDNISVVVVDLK
| Variant | relative binding score [%] |
| --- | --- |
| V137I | 1.74 |
| D96E | 39.4 |
| R45N | -1.23 |
| S59G | 8.11 |
| K126Q | 45.5 |
| E139I | -9.71 |
| L91R | -0.919 |
| N165P | 5.38 |
| C25D | -5.89 |
| G148C | 1.33 |
| S11Y | 35.1 |
| L156H | 4.25 |
| A84T | 26.6 |
| G81I | 11 |
| P83Y | 4.59 |
| S27K | 0.765 |
| H34V | 2.86 |
| V70D | -2.68 |
| D95V | -6.9 |

Set 2
Target: Interferon regulatory factor 5, full length, phosphomimetic (IRF5, Homo sapiens, UniProt Q13568-2, residues 1-514, K96S/S451D/S453D/S456D/S462D)
Technique: protein-binding microarray
Form: double-stranded DNA, one strand shown
Medium: in vitro
Concentration: 250 nM
Notes: 60-bp whole probe
With: salmon DNA 0.4 mg/ml
Baseline: random background probes
Direction: higher = stronger binding
Shared flanks, not repeated: GCCTAGCAC … GTCTTGATTCGCTTGACGCTGCTG
| Oligonucleotide | log fluorescence [z-score] |
| --- | --- |
| TCACCTTTTATATTGTAACTGTGCTAG | 0.914 |
| TTAGATCTCAGACTGCATTAGTGCTAG | -0.0897 |
| TTGGGACTGGGACTGGGTTAGTGCTAG | -0.447 |
| TACGATATCGGGTATCGAGACGTGCTA | 2.74 |
| GACGATATCGGGACTAGAGACGTGCTA | 1 |
| TTAGGACTGGTGTATCGGTTAGTGCTA | 2.75 |
| TTAGGACTGGACTTTCAGTTAGTGCTA | 2.78 |
| GACGATTTCAGTTTCGATACGTGCTAG | 10 |
| TCAAGTGTTTTTCTCCTACTGTGCTAG | 0.601 |
| TCAAAAATGATGTTTTAGACTGTGCTA | 0.435 |
| ACAAGTTTCTCCTTTCCAAAGTGCTAG | 3.21 |
| GACGATTTCAGTTCCGAGACGTGCTAG | 1.38 |
| GACGGACTGGGACTGGGGGCGTGCTAG | 0.0966 |
| CCTAGTTTTACTTTCTATGTGTGCTAG | 4.94 |
| TTCGGTCTCCTACTGCTTTAGTGCTAG | 0.822 |
| TGCTGTCTCAGAGTCCTCTGGTGCTAG | -0.097 |
| TTAGGCTTCGGTTTCGGTTAGTGCTAG | 9.33 |

Set 3
Target: CCNF, cyclin fold, Cln2 fusion (human)
Technique: yeast growth competition, sequencing
Medium: yeast
Notes: strong parent motif
Baseline: not given
Direction: higher = stronger binding
Starting sequence: REPIN1 docking peptide (human); QSFRGWVALVLHL
| Variant | normalised enrichment score |
| --- | --- |
| ASFRGWVALVLHL [Q1A] | 2.06 |
| QSFRGWAALVLHL [V7A] | 1.83 |
| QSFRGAVALVLHL [W6A] | 0.919 |
| QSFRGWVAAVLHL [L9A] | 1.72 |
| QAFRGWVALVLHL [S2A] | 1.88 |
| QSFRGWVALALHL [V10A] | 1.98 |

Set 4
Target: Fragile X messenger ribonucleoprotein 1, C-terminal low-complexity region (Fmr1, Mus musculus, UniProt P35922)
Technique: RNA Bind-n-Seq
Form: RNA
Medium: in vitro
Concentration: 200 nM
Notes: whole 134-nt RNA, ends assumed
With: 150 mM LiCl
Baseline: input library
Direction: higher = stronger binding
Library: 7-deaza-guanosine replaces G
Shared flanks, not repeated: GGGAGUUCUACAGUCCGACGAUC … UGGAAUUCUCGGGUGUCAAGG
| Oligonucleotide | log2 enrichment |
| --- | --- |
| AAGUCCUGUGCUACACAUCGUAUGUACCGAAUCGGGUUUUGGUUUUGGUUUUGGGGAAAGUAUUAUGUUACGCCGUUCGGAUCUGCACUU | -1.82 |
| GUCCUGUGCUACACAUCGUAUGUACCGAAUCGGGGCCCCGGGCCCCGGGGCCCCGGGGAAAGUAUUAUGUUACGCCGUUCGGAUCUGCAC | -0.543 |
| CCUGUGCUACACAUCGUAUGUACCGAAUCGGGGUUUUUUGGUUUUUUGGGUUUUUUGGGGAAAGUAUUAUGUUACGCCGUUCGGAUCUGC | -1.78 |
| CACAGACAACACGCACCCACACAGACACAGAGGGAAGGGGUUGGGAUGGGGACAGGGUGCACAGCAGGGCGGAGUAGGACCCCAGCCCCU | 0.0851 |
| UCAAGUCCUGUGCUACACAUCGUAUGUACCGAAUCGGUUUGGGGUUUGGUUUGGAAAGUAUUAUGUUACGCCGUUCGGAUCUGCACUUCC | -0.924 |
| CCUGUGCUACACAUCGUAUGUACCGAAUCGGGCCCCCCCGGCCCCCCCGGGGCCCCCCCGGAAAGUAUUAUGUUACGCCGUUCGGAUCUG | 0.0196 |
| UCAAGUCCUGUGCUACACAUCGUAUGUACCGAAUCGGGAAGGGAAGGGGAAGGGAAAGUAUUAUGUUACGCCGUUCGGAUCUGCACUUCC | -1.09 |
| UCAAGUCCUGUGCUACACAUCGUAUGUACCGAAUCGGGGUUGGUUGGGUUGGGGAAAGUAUUAUGUUACGCCGUUCGGAUCUGCACUUCC | 0.028 |

Other studies, line by line
| Substance | target | test | test system | conditions | scale | quantity | value |
| --- | --- | --- | --- | --- | --- | --- | --- |
| PhoQ, residues 284 288 289 292 302 303 SSYNSA | PhoP, residues 12 14 15 18 19 LHTVM (Escherichia coli, UniProt P23836) | Sort-seq, item: YFP reporter | E. coli | PhoQ-PhoP variant library, with: 10 µM Mg2+ | baseline: high Mg2+ state, higher = stronger signaling | fold induction | 1.48 |

Repeated from above (set 1):
| Variant | relative binding score [%] |
| --- | --- |
| E139I | -9.71 |
| R45N | -1.23 |
| C25D | -5.89 |
| V70D | -2.68 |
| L91R | -0.919 |
| G148C | 1.33 |
| D95V | -6.9 |
